Measured values gathered from unrelated publications.
Each line is one published result; not all experiments were run side by side.
Cell line: HEK293
Read-out: cell growth or viability

Structure (SMILES) | assay | setting | CC50
CC[C@H]1OC(=O)[C@H](C)[C@@H](OC(=O)Cc2cccc(Cl)c2)[C@H](C)[C@@H](O[C@@H]2O[C@H](C)C[C@H](N(C)C)[C@H]2O)[C@](C)(OC)C[C@@H](C)C(=O)[C@H](C)[C@@H](O)[C@]1(C)O | – | – | > 32 µg/mL
CC1(C)C(NC(=O)C(=NOC2(C(=O)O)CC2)c2csc(N)n2)C(=O)N1OS(=O)(=O)O (centres unmarked) | – | – | > 100 µM
Cc1ccc(Cn2cc(C(=O)N/N=C/c3ccc([N+](=O)[O-])o3)c(=O)c3ccc(Oc4ccccc4)cc32)cc1 | resazurin | 48 h | > 20 µM
CCOC(=O)c1ccc2c(c1)C1CC(C)(N2)c2c(C)nc3ccc(C(=O)OCC)cc3c21 (centres unmarked) | MTT | – | > 400 µM
CC[C@H]1OC(=O)[C@H](C)[C@@H](OC(=O)Cc2ccc3c(c2)OCO3)[C@H](C)[C@@H](O[C@@H]2O[C@H](C)C[C@H](N(C)C)[C@H]2O)[C@](C)(OC)C[C@@H](C)C(=O)[C@H](C)[C@@H](O)[C@]1(C)O | – | – | > 32 µg/mL
COC(=O)c1c(CCl)cc(O)c(=O)c(O)c1C(=O)OC | MTS | – | > 100 µM
O=C1C(NCCc2ccc(O)c(Br)c2)=CC2=NCCc3c[nH]c1c32 | MTT | 72 h | 4 µM
CC[C@H]1OC(=O)[C@H](C)[C@@H](OC(=O)Cc2ccccc2[N+](=O)[O-])[C@H](C)[C@@H](O[C@@H]2O[C@H](C)C[C@H](N(C)C)[C@H]2O)[C@](C)(OC)C[C@@H](C)C(=O)[C@H](C)[C@@H](O)[C@]1(C)O | – | – | > 32 µg/mL
O=C1C(NCCc2cc(Br)c(O)c(Br)c2)=CC2=NCCc3c[nH]c1c32 | MTT | 72 h | 10 µM
CC(C)[C@@H](C)Nc1nc(-c2cccs2)nc(Cl)c1-c1c(F)cc(F)cc1F | resazurin | 48 h | > 50 µM
COc1ccc(CCNC2=CC3=[N+](C)CCc4c[nH]c(c43)C2=O)cc1 | MTT | 72 h | 0.2 µM
CC[C@H]1OC(=O)[C@H](C)C(=O)[C@H](C)[C@@H](O[C@@H]2O[C@H](C)C[C@H](N(C)C)[C@H]2O)[C@](C)(OC)C[C@@H](C)C(=O)[C@H](C)[C@H]2N(CCCCn3cnc(-c4cccnc4)c3)C(=O)O[C@]12C | – | – | > 32 µg/mL
C[N+]1=C2C=C(NCCc3c[nH]c4ccccc34)C(=O)c3[nH]cc(c32)CC1 | MTT | 72 h | 0.5 µM
Cc1ccc2c(c1)C1CC(C)(N2)c2c(C)nc3ccc(C)cc3c21 (centres unmarked) | MTT | – | 44.2 µM
Cc1ccc(S(=O)(=O)n2cc3c4c2C(=O)C(NCCc2ccc(O)cc2)=CC4=NCC3)cc1 | MTT | 72 h | 1 µM
COC(=O)c1cc(O)c(=O)c(O)cc1C | MTS | – | > 90 µM
CC[C@H]1OC(=O)[C@H](C)[C@@H](OC(=O)Cc2ccc(N)cc2)[C@H](C)[C@@H](O[C@@H]2O[C@H](C)C[C@H](N(C)C)[C@H]2O)[C@](C)(OC)C[C@@H](C)C(=O)[C@H](C)[C@@H](O)[C@]1(C)O | – | – | > 32 µg/mL

For quick reference, copied from above:
Structure (SMILES) | assay | setting | CC50
Cc1ccc(S(=O)(=O)n2cc3c4c2C(=O)C(NCCc2ccc(O)cc2)=CC4=NCC3)cc1 | MTT | 72 h | 1 µM
